# Results pooled from the literature.
# ± gives the spread as reported.
# Organism: Trypanosoma cruzi
SMILES,read-out,technique,cells,strain,time,notes,IC50 [µM]
COc1ccc(C(=O)N2CCN(Cc3ccccc3)CC2)cc1,parasite growth,,mouse Peritoneal macrophage,,48 h,"intracellular, amastigote",> 60
COc1ccc2sc(N(Cc3cccnc3)C(=O)c3ccc(C#N)cc3)nc2c1,,imaging,3T3 fibroblasts,amastigote,48 h,,3.55 ± 2.36
COc1cc(C(=O)N2CCN(Cc3ccccc3)CC2)ccc1O,parasite growth,,mouse Peritoneal macrophage,,48 h,"intracellular, amastigote",35.9
Cc1cc(C2CCCCC2)n(O)c(=O)c1,,imaging,3T3 fibroblasts,amastigote,48 h,,5.37 ± 0.51
O=[N+]([O-])c1nccn1CCCN(Cc1cccc(C(F)(F)F)c1)Cc1cccc(C(F)(F)F)c1,growth,,L6 myoblasts,Tulahuen C4,,intracellular amastigotes,4 to 60
CCOc1cccc2sc(N(Cc3cccnc3)C(=O)C3CCCCC3)nc12,,imaging,3T3 fibroblasts,Tulahuen amastigote,48 h,stored DMSO sample,0.46 ± 0.01
O=C(Cn1ccnc1[N+](=O)[O-])NCc1ccccc1,parasite viability,resazurin,,"Y, trypomastigotes",24 h,heme-free medium,13 ± 5.7
COc1ccc(C[C@H](N)C(=O)N[C@H]2[C@@H](O)[C@H](n3cnc4c(N(C)C)ncnc43)O[C@@H]2CO)cc1,,PrestoBlue,,trypomastigote,48 h,solid sample,0.44 ± 0.63
c1cncc(Oc2ccc(OCCOC3CCCCO3)cc2)c1 (stereo not shown),parasite growth,,Vero,,72 h,"intracellular, amastigote",> 10
O=C(NC(c1ccccc1)c1ccc2cccnc2c1O)c1ccccc1 (stereo not shown),,imaging,3T3 fibroblasts,Tulahuen amastigote,48 h,,1.42 ± 0.99
O=C(Cn1ccnc1[N+](=O)[O-])NCc1ccccc1,parasite growth,resazurin,,,48 h,epimastigote,8.54
O=[N+]([O-])c1ccc(/C=N/N=C/c2ccccc2)s1,parasite growth,resazurin,,,,trypomastigote,< 2.5
COc1ccc(C)c2sc(N(Cc3cccnc3)C(=O)c3ccc(C#N)cc3)nc12,,imaging,3T3 fibroblasts,Tulahuen amastigote,48 h,,2.32 ± 0.66
O=[N+]([O-])c1nccn1CCCCNc1nc(-c2ccccc2)nc(Cl)c1-c1ccccc1,growth,,L6 myoblasts,Tulahuen C4,,intracellular amastigotes,4 to 60
O=C(Cn1ccnc1[N+](=O)[O-])NCc1ccccc1,parasite release from CHO cells,,,"Y strain, GFP-expressing",,serum-free host culture,7.5
O=C(Cn1ccnc1[N+](=O)[O-])NCc1ccccc1,parasite growth,,mouse Macrophage,,24 h,"intracellular, amastigote",2.67
COc1ccc(/C=C/C(=O)N2CCN(Cc3ccccc3)CC2)cc1,parasite growth,,mouse Peritoneal macrophage,,48 h,"intracellular, amastigote",28.6
O=C1C(Cl)=C(NCCCn2cnc([N+](=O)[O-])n2)C(=O)c2ccccc21,growth,,L6 myoblasts,Tulahuen C4,,intracellular amastigotes,4 to 60
COc1cccc(Oc2ccc(OCCSC#N)cc2)c1,parasite growth,tdTomato fluorescence,Vero,"CL, tdTomato-expressing, amastigotes",3 d post-infection,,4.6
O=[N+]([O-])c1nccn1CCCN1CCN(Cc2ccc(C(F)(F)F)cc2)CC1,growth,,L6 myoblasts,Tulahuen C4,,intracellular amastigotes,4 to 60
COc1ccccc1N1CCN(C(CNS(=O)(=O)c2ccc(Cl)cc2)c2cccnc2)CC1 (stereo not shown),,imaging,3T3 fibroblasts,Tulahuen amastigote,48 h,stored DMSO sample,2.25 ± 0.31
O=C1C(Cl)=C(NCCCn2ccnc2[N+](=O)[O-])C(=O)c2ccccc21,growth,,L6 myoblasts,Tulahuen C4,,intracellular amastigotes,4 to 60
COc1ccc(Oc2ccc(OCCSC#N)cc2)cc1,parasite growth,,Vero,,72 h,"intracellular, amastigote",6.1
Clc1ccc2c(NCCCCn3cncn3)ccnc2c1,parasite growth,,L6,TULAHUEN,,"intracellular, amastigote",> 60
O=C(Cn1ccnc1[N+](=O)[O-])NCc1ccccc1,,,,"Tulahuen C4, amastigotes",,,6.11

# A few entries again:
SMILES,read-out,technique,cells,strain,time,notes,IC50 [µM]
O=[N+]([O-])c1nccn1CCCCNc1nc(-c2ccccc2)nc(Cl)c1-c1ccccc1,growth,,L6 myoblasts,Tulahuen C4,,intracellular amastigotes,4 to 60
O=C(Cn1ccnc1[N+](=O)[O-])NCc1ccccc1,parasite release from CHO cells,,,"Y strain, GFP-expressing",,serum-free host culture,7.5
O=C(Cn1ccnc1[N+](=O)[O-])NCc1ccccc1,parasite growth,,mouse Macrophage,,24 h,"intracellular, amastigote",2.67
COc1ccc(/C=C/C(=O)N2CCN(Cc3ccccc3)CC2)cc1,parasite growth,,mouse Peritoneal macrophage,,48 h,"intracellular, amastigote",28.6
